Assay results collected from several papers.
A part holds a random share of what one study measured.

Block 1 — method: RNA Bind-n-Seq; form: RNA; matrix: in vitro; tested at: 365 nM; baseline: no-protein control; reading: higher = stronger binding
Target: RNA binding protein fox-1 homolog 2, RRM domain, GST-SBP tag (RBFOX2, Homo sapiens, UniProt O43251-10, residues 100-194)
Notes: natural RNA segment, single round, ends assumed
`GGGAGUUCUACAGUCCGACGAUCUAUUUUGUCCAUGUUGGUGAUGUACUGUACUUCCCUUCCUUUUCUCUGCAUCCCCCAUCACCUCAUAGAAGACUCUUUGUUGAUCAUUGUAUGUUAAUAAUGUAUAAAAUUGGAAUUCUCGGGUGCCAA` — result for “RBNS enrichment (R)”: 20.6.
`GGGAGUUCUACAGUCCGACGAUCAUGUCAGGGUUCUGCUCGGCUUCUUGGACCUUGGCGCUUAGUCCCCAUCCCGGGUUUGGCUGAGCCUGGCUGGAGAGCUGCUAUGCUAAACCUCCUGCCUCCCAAUACCAUGGAAUUCUCGGGUGCCAA` — result for “RBNS enrichment (R)”: 0.56.
`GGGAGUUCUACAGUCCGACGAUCAGAACUGCCUUGGUGGACACCAGCCUCGCCCUGUCUUUAUUUCCUGAAUGGUUUGUGAACUUGCUCACCUGGACCACUGUAUCCUGCCACUGUCCUUCCUGGUCUCGCACUGGAAUUCUCGGGUGCCAA`: “RBNS enrichment (R)” 0.645.
`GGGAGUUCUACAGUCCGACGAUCCCCAGCACUACUCAGCAUGUAGUCCAGGACCUGCGGCAUCAGCAUCCCCUGGGAGCUUCUUAGAAAUGCAGACCUGUGGGCUCUACCACAGGCCUCUGGAAUCAGAAUCUUGGAAUUCUCGGGUGCCAA`: “RBNS enrichment (R)” 4.57.
`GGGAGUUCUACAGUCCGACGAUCGGCACCCCAGUUGUGGGGGAGCCUGUAUUUUUUUUAACAACAUCCCCAUUCCCCACCUGGUCCUCCCCCUUCCCAUGCUGCCAACUUCUAACCGCAAUAGUGACUCUGUGUGGAAUUCUCGGGUGCCAA`: “RBNS enrichment (R)” 0.599.
Under “RBNS enrichment (R)”, `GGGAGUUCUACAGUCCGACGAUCUUGUUACUGAAAACAAAGUCUUGUCUAGCACCGUGAGAAUCAUUAAAAAUAAAAUGGCAAUUUUAGCACAAUGUUAAGAAAAUGCCCUACUUCAUUACCGCACUUUCUUGUGGAAUUCUCGGGUGCCAA` is recorded as 0.481.
`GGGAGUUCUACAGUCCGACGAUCGCUUAUUAACGUGAGCCUCCCUGUUGGUGAAAUGGUGUAGCUGGGAACGGACAGCAAAGGUGCAGGCGGUCAGGCUCCUCGCUUGGAAGACCACGGUUCUGAGCAAGUCUUGGAAUUCUCGGGUGCCAA`: “RBNS enrichment (R)” 0.374.
Under “RBNS enrichment (R)”, `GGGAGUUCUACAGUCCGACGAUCUUUAAGCAUUUUAUCAAUCAUUAAAAUUUACUGCCAGUUGUGAGUGGCUUUUUAAUUAACUUGUCUUUCAUUGCACUUCACUCUGCCUGUUUUCAAGGGGAGUAAGAUUGUGGAAUUCUCGGGUGCCAA` is recorded as 1.71.

Block 2 — method: RNA Bind-n-Seq; form: RNA; matrix: in vitro; tested at: not given; notes: RNA with constant flanks, ends assumed; baseline: input RNA pool; reading: higher = stronger binding
Target: RING finger protein unkempt homolog, zinc fingers 1-6, GST-SBP tag (UNK, Homo sapiens, UniProt Q9C0B0, residues 30-357)
Residues (chain): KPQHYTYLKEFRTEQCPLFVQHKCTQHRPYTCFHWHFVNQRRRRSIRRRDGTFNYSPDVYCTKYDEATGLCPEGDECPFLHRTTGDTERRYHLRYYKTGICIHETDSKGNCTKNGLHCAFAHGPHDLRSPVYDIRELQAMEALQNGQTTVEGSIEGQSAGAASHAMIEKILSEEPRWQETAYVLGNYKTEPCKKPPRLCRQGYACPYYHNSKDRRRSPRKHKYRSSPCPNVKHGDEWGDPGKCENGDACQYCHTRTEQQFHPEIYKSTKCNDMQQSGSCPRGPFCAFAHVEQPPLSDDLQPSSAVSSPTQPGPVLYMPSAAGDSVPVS
With `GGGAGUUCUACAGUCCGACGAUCACAGCUAGUGGCUGCUUGGUUGAAAGGAGGCAUUGACUUCAGCAACACAAUUAUGUUUUUAUCCGGAAUGUGCCAUACCGAAUCCGUGUGCGGCUGUCCAGAAAACGUAAUGAGGAUGAACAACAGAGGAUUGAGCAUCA` the bound/input enrichment was 0.0688 ratio.
The bound/input enrichment of `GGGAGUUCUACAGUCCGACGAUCCUGCAGUAAAACACAGAAGGCUUUAAAAUGUUUUCUUGCAUAAAAUUCAAAACUUUUAAGCCGCUGCUUAUGAGAAUAGGGAAGGCAGAAAGCUAAUGUCUGUCUCAAGAUACAGGACAGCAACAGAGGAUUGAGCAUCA` is reported as 0.227 ratio.
`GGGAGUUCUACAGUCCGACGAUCGAUGGCACAGCUUCUGGAUCUAUCUGUUGAUGAGUCCGAAGCCUUUCUCUCAAAUCCCGCCGUUAACAAGACCAUCUUUGCUAAAGUAGACAGAUUAGCAGGAAUUAUCAACUUCCAGAGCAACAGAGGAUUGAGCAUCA` has a bound/input enrichment of 0.311 ratio.
The bound/input enrichment of `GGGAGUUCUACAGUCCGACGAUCAAAUAACAUUGGAAAAUUGGGAGAAGUCUCCUUGGUUUGGAAAAAAAGGACUCUUCAACCCCGCUCACUUUCUUAUCCGGACUGGGAUAUUAAAUAUACGACACAUCCAGGAGUUUAUUGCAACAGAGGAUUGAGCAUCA` is reported as 0.25 ratio.
The bound/input enrichment of `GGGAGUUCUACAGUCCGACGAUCCUACCAACCAGACCAGGACUUAAUAAAGCACAACUUGUUGAGAUAGUUGGUUGCCACUUCCGGUCUAUUCCAGUGAAUGAAAAAGACACCUUAACAUAUUUCAUCUACUCAGUGAAGAAUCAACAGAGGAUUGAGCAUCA` is reported as 0.155 ratio.

Block 3 — method: RNA Bind-n-Seq; form: RNA; matrix: in vitro; tested at: 1 µM; notes: whole 134-nt RNA, ends assumed; added: 150 mM KCl; baseline: input library; reading: higher = stronger binding
Target: Ras GTPase-activating protein-binding protein 1, RRM domain (G3BP1, Homo sapiens, UniProt Q13283)
Sequence of UniProt Q13283 (whole entry, looked up): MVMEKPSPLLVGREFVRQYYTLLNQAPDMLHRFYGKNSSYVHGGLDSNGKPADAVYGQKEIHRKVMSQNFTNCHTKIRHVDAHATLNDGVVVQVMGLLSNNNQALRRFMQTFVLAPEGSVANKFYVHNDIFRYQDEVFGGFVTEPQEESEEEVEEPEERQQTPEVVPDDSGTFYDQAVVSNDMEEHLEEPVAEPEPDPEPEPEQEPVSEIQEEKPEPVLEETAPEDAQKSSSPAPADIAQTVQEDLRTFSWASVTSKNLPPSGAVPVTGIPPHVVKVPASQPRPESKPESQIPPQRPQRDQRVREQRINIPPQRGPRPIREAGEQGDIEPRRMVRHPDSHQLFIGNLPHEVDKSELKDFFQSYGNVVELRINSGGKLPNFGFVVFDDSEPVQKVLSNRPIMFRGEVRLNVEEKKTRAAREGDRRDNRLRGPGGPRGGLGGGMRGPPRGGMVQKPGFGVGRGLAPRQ
`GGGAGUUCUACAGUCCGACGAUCAGUUCUAUCUCUGGGGUGACUGCCGCAUAUAACCGAGAACAGCUGUGGCUGGCCAAUGAAGGCCUGAUCACCAGGCUGCAGGCUCGCUGCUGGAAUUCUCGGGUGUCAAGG` gave a log2 enrichment of -0.0885.
With `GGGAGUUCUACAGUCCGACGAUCUGCCUCCCUGCUGCAGAAAUACACCGACAACAGCGAGAAGCCAUCCGGGAAGAGACUGUGCAAAACCAAACACUUGAUCCCUCAGGAGUCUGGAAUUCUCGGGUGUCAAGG` the log2 enrichment was -0.101.
With `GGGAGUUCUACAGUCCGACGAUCAGUCCUGUGCUACACAUCGUAUGUACCGAAUCGGGUUUUGGGUUUUGGGGUUUUGGGAAAGUAUUAUGUUACGCCGUUCGGAUCUGCACUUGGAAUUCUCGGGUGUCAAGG` the log2 enrichment was 0.322.
`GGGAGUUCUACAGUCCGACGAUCGUCCUGUGCUACACAUCGUAUGUACCGAAUCGGCCCCCGGGGCCCCCGGGGCCCCCGGGAAAGUAUUAUGUUACGCCGUUCGGAUCUGCAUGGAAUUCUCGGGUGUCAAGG` has a log2 enrichment of -0.479.
`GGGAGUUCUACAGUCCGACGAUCUGUAACCUGGGGAUUCUCUCAACUCUCUUGUCCCACACAGACUUCUAUGAGGAAAUCCAGGAGUUUGUGAAAGAUGUCUUUUCACCUAUAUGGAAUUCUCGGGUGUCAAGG` has a log2 enrichment of 0.0801.
The log2 enrichment of `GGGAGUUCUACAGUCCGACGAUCUCAAGUCCUGUGCUACACAUCGUAUGUACCGAAUCGGGCCCGGGCCCGGCCCGGGAAAGUAUUAUGUUACGCCGUUCGGAUCUGCACUUCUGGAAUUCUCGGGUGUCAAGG` is reported as -0.592.
The log2 enrichment of `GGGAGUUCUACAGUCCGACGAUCUGGCCCUGGUGGCAUGCGGGGAGGAAGAGGUGGCCUCAUGGAUCGUGGUGGUCCCGGUGGAAUGUUCAGAGGUGGCGGUGGUGGAGACAGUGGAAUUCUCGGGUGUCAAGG` is reported as 1.33.
`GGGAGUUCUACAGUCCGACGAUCUAACUUCAGAGGAGGAUCUGAUGGAUAUGGCAGUGGACGUGGAUUUGGGGAUGGCUAUAAUGGGUAUGGAGGAGGACCUGGAGGUGGCAAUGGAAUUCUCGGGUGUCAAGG` has a log2 enrichment of -1.02.

Block 4 — target: BIRC6 UBC core domain (UniProt Q9NR09); method: yeast two-hybrid; matrix: yeast; notes: mostly zero background; baseline: not given; reading: higher = stronger interaction
B1: PJA2 RING domain (UniProt O43164); chain DHTAIGQEQCCPICCSEYIKDDIATELPCHHFFHKPCVSIWLQKSGTCPVCRRHFPPAVIEA
B2: TRIM2 RING domain (UniProt Q9C040); chain VRQIDKQFLICSICLERYKNPKVLPCLHTFCERCLQNYIPAHSLTLSCPVCRQTSILPEKGV
B3: RNF7 RING domain (UniProt Q9UBF6); chain AICRVQVMDACLRCQAENKQEDCVVVWGECNHSFHNCCMSLWVKQNNRCPLCQQDWVVQRIGK
B4: RNF10 RING domain (UniProt Q8N5U6); chain VRICSHEVPSCPICLYPPTAAKITRCGHIFCWACILHYLSLSEKTWSKCPICYSSVHKKDLKS
B5: RMND5B RING domain (UniProt Q96G75); chain MKCWYHSVFACPILRQQTSDSNPPIKLICGHVISRDALNKLINGGKLKCPYCPMEQNPADGK
B6: TRIM47 RING domain (UniProt Q96LD4); chain MDGSGPFSCPICLEPLREPVTLPCGHNFCLACLGALWPHRGASGAGGPGGAARCPLCQEPFPDGLQLR
B7: RNF115 RING domain (UniProt Q9Y4L5); chain TQEQVDMGLECPVCKEDYTVEEEVRQLPCNHFFHSSCIVPWLELHDTCPVCRKSLNGEDSTR
Under “lacZ reporter activity”, `EDVLSKDAGECAICLEELQQGDTIARLPCLCIYHKGCIDEWFEVNRSCPEHPSD (ZNRF2 RING domain (UniProt Q8NHG8))` is recorded as 0.
For `B1 (PJA2 RING domain)`, “lacZ reporter activity” read 0.
`B2 (TRIM2 RING domain)` — result for “lacZ reporter activity”: 0.
For `B3 (RNF7 RING domain)`, “lacZ reporter activity” read 0.
`B4 (RNF10 RING domain)`: “lacZ reporter activity” 0.
For `FLSKVEETFQCICCQELVFRPITTVCQHNVCKDCLDRSFRAQVFSCPACRYDLGRSYAMQ (UHRF1 RING domain (UniProt Q96T88))`, “lacZ reporter activity” read 0.
For `GSEEEEIPFRCFICRQAFQNPVVTKCRHYFCESCALEHFRATPRCYICDQPTGGIFNPA (RNF113B RING domain (UniProt Q8IZP6))`, “lacZ reporter activity” read 0.
`B5 (RMND5B RING domain)`: “lacZ reporter activity” 0.
`EIKDYKARLTCPCCNMRKKDAVLTKCFHVFCFECVKTRYDTRQRKCPKCNAAFGANDFHR (RNF20 RING domain (UniProt Q5VTR2))` — result for “lacZ reporter activity”: 0.
Under “lacZ reporter activity”, `B6 (TRIM47 RING domain)` is recorded as 0.
`B7 (RNF115 RING domain)` — result for “lacZ reporter activity”: 0.
